Measured values gathered from unrelated publications.
Protocols differ between the studies behind these lines.

With `CCn1c2ccccc2c2cc(-n3nncc3-c3ccccc3)ccc21` the Tmax was 4.1 h (female BALB/c mouse, spleen; oral, 10 mg/kg, single dose).
`CNc1nc(Nc2ccc(-n3cnc(C)n3)c(OC)c2)nc2c1CC[C@H]2c1ccc(F)cc1` gave a Tmax of 4 h (human, plasma; oral, 100 mg, single dose, healthy volunteers).
`CC(=O)N[C@H]1CC[C@H](NC(=O)CN2CCN(c3nncc(-c4ccc(C)cc4)n3)CC2)CC1` gave a Tmax of 1.5 h (human, plasma; oral, 5 mg, single dose, fasted, healthy volunteers).
For `CS(=O)(=O)c1ccc(-c2cnc(N)c(-c3ccc(C(F)(F)F)nc3)c2)cc1`, the Tmax was 4 h (pregnant female Sprague-Dawley rat, plasma; oral, 10 mg/kg/day, gestation day 17).
For `Nc1ncc(-c2cnn(CCO)c2)c2scc(-c3ccc(NC(=O)Nc4cccc(F)c4)cc3)c12`, the Tmax was 3.3 h (human, plasma; oral, 160 mg, patients).
The Tmax of `C[C@@H]1CCC[C@H](n2cnc(-c3cc(Cl)ccc3-n3cc(Cl)nn3)cc2=O)c2cc(ccn2)-c2c(cnn2C(F)F)NC1=O` is reported as 3 h (human, plasma; oral, 60 mg, single dose, fasted, healthy volunteers).
`CCCOc1ccc([C@H]2CNC(=O)N2c2ccc3[nH]cnc3c2)cc1` has a Tmax of 1 h (human, plasma; oral, 300 mg, multiple doses, twice daily, fasted).
The Tmax of `CCN1CCN(c2ccc(Nc3cc(N(C)C(=O)Nc4c(Cl)c(OC)cc(OC)c4Cl)ncn3)cc2)CC1` is reported as 3 h (Crl:WI(Han) rat, juvenile female, plasma; oral gavage, 1.0 mg/kg/day, postnatal day 17).
`CC(=O)O[C@@]12CO[C@@H]1C[C@H](O)[C@@]1(C)C(=O)[C@H](O)C3=C(C)[C@@H](OC(=O)[C@H](O)[C@@H](NC(=O)OC(C)(C)C)c4ccccc4)C[C@@](O)([C@@H](OC(=O)c4ccccc4)[C@H]21)C3(C)C` has a Tmax of 0.25 h (male Kunming mouse, lung; oral, 20 mg/kg).
With `C#C[C@]1(CO)O[C@@H](n2cnc3c(N)nc(F)nc32)C[C@@H]1O` the Tmax was 1.75 h (human, plasma; oral, 30 mg, single dose, fed).
For `O=C1C(=Cc2ccccn2)CNCC1=Cc1ccccn1`, the Tmax was ≤ 0.5 h (male mouse, plasma; intraperitoneal, 25 mg/kg).
For `CCCC[C@H](NC(C)=O)C(=O)N[C@H]1CCC(=O)NC[C@@H](C(=O)N[C@@H](Cc2c[nH]c3ccccc23)C(N)=O)NC(=O)[C@H](CCCNC(=N)N)NC(=O)[C@@H](Cc2ccccc2)NC(=O)[C@H](Cc2c[nH]cn2)NC1=O`, the Tmax was 0.5 h (CD Sprague Dawley rat, female, plasma; subcutaneous, 5.0 mg/kg daily, day 1).
With `CNC(=O)c1ccccc1Nc1cc(Nc2ccc(N3CCOCC3)cc2OC)ncc1C(F)(F)F` the Tmax was ≤ 0.25 h (BALB/c mouse, plasma; intraperitoneal, 30 mg/kg, single dose).
`Cc1nc2cccc(OCC(C)(C)C(=O)NC(C)C)c2c(N)c1C(=O)O` has a Tmax of 0.33 h (male Sprague-Dawley rat, plasma; oral gavage, 100 mg/kg, day 1).
`CC1=C2C[C@H]3[C@@H](CC[C@@H]4C[C@H](NS(C)(=O)=O)CC[C@@]43C)[C@@H]2CC[C@@]2(C1)O[C@@H]1C[C@H](C)CN[C@H]1[C@H]2C` has a Tmax of 5.05 h (patients, plasma; oral, 30 mg daily, day 22, cycle 1).
With `COc1cccc(-c2n[nH]c(SCc3ccccn3)n2)c1OC` the Tmax was 6 h (Sprague-Dawley rat, both sexes, plasma; oral, diet, 10 mg/kg/day, day 90).

A few entries again:
`CC(=O)N[C@H]1CC[C@H](NC(=O)CN2CCN(c3nncc(-c4ccc(C)cc4)n3)CC2)CC1` gave a Tmax of 1.5 h (human, plasma; oral, 5 mg, single dose, fasted, healthy volunteers).
For `CS(=O)(=O)c1ccc(-c2cnc(N)c(-c3ccc(C(F)(F)F)nc3)c2)cc1`, the Tmax was 4 h (pregnant female Sprague-Dawley rat, plasma; oral, 10 mg/kg/day, gestation day 17).
